Experimental data pooled from the literature.
Each line is one published result; not all experiments were run side by side.
Organism: Streptococcus pneumoniae

Structure (SMILES) | test | system | setting | MIC
CC(/C=C/C(O)=C1/C(=O)CNC1=O)=C\[C@@H](C)[C@H]1O[C@@]2(C)O[C@H](C[C@@H]3O[C@@]32C)[C@@H]1C |  | ATCC 49619 |  | > 100 µM
CN(C)c1cc(CN)c(O)c2c1C[C@H]1C[C@H]3[C@H](N(C)C)C(O)=C(C(N)=O)C(=O)[C@@]3(O)C(O)=C1C2=O |  | ATCC 700905, Tet M ribosome protection |  | 4 µg/mL
O=C(O)CN1C(=O)/C(=C/c2ccc(-c3ccc(N(c4ccccc4)c4ccccc4)cc3)cc2)NC1=S | broth microdilution | ATCC 49619 |  | 62.5 µg/mL
CC(C)CNCc1cc(N(C)C)c2c(c1O)C(=O)C1=C(O)[C@]3(O)C(=O)C(C(N)=O)=C(O)[C@@H](N(C)C)[C@@H]3C[C@@H]1C2 | microbial growth, broth dilution |  |  | 0.25 µg/mL
Oc1c(Br)cc(Br)c2nc3cc(C(F)(F)F)ccc3nc12 | microbial growth, broth dilution | 6303 |  | 0.08 µM
CC[C@H](C)[C@H](N)C1=N[C@H](C(=O)N[C@@H](CC(C)C)C(=O)N[C@H](CCC(=O)O)C(=O)N[C@H](C(=O)N[C@H]2CCCCNC(=O)[C@H](CC(N)=O)NC(=O)[C@@H](CC(=O)O)NC(=O)[C@H](Cc3c[nH]cn3)NC(=O)[C@@H](Cc3ccccc3)NC(=O)[C@H]([C@@H](C)CC)NC(=O)[C@@H](CCCN)NC2=O)[C@@H](C)CC)CS1 |  | 153, TSB with lysed horse blood | 24 h, 37 °C, added: ZnSO4 | 2 µg/mL
COC1CCN(Cc2cc(N(C)C)c3c(c2O)C(=O)C2=C(O)[C@]4(O)C(=O)C(C(N)=O)=C(O)[C@@H](N(C)C)[C@@H]4C[C@@H]2C3)CC1 | microbial growth, broth dilution |  |  | < 0.06 µg/mL
c1ccc(CN2CCOCCOCCN(CCCCCCCCCCCCCCN3CCOCCOCCN(CCCCCCCCCCCCCCN4CCOCCOCCN(Cc5ccccc5)CCOCCOCC4)CCOCCOCC3)CCOCCOCC2)cc1 | microbial growth |  |  | 6 µM
CC(/C=C/C(O)=C1/C(=O)CNC1=O)=C\[C@@H](C)[C@H]1O[C@@]2(C)O[C@H](C[C@@H]3O[C@@]32CO)[C@@H]1C |  | ATCC 49619 |  | 25 µM
Oc1c(Br)cc(Br)c2nc3cc(Cl)ccc3nc12 | microbial growth, broth dilution | 6303 |  | 0.2 µM
c1ccc(CN2CCOCCOCCN(CCCCCCCCCCN3CCOCCOCCN(CCCCCCCCCCN4CCOCCOCCN(Cc5ccccc5)CCOCCOCC4)CCOCCOCC3)CCOCCOCC2)cc1 |  | R:Pen |  | 6 µM
Oc1c(Br)cc(Br)c2nc3cc(SC(F)(F)F)ccc3nc12 | microbial growth, broth dilution | 6303 |  | 0.08 µM
C=CCNCc1cc(N(C)C)c2c(c1O)C(=O)C1=C(O)[C@]3(O)C(=O)C(C(N)=O)=C(O)[C@@H](N(C)C)[C@@H]3C[C@@H]1C2 |  | ATCC 700905, Tet M ribosome protection |  | 0.5 µg/mL

A few entries again:
Structure (SMILES) | test | system | setting | MIC
Oc1c(Br)cc(Br)c2nc3cc(C(F)(F)F)ccc3nc12 | microbial growth, broth dilution | 6303 |  | 0.08 µM
CC[C@H](C)[C@H](N)C1=N[C@H](C(=O)N[C@@H](CC(C)C)C(=O)N[C@H](CCC(=O)O)C(=O)N[C@H](C(=O)N[C@H]2CCCCNC(=O)[C@H](CC(N)=O)NC(=O)[C@@H](CC(=O)O)NC(=O)[C@H](Cc3c[nH]cn3)NC(=O)[C@@H](Cc3ccccc3)NC(=O)[C@H]([C@@H](C)CC)NC(=O)[C@@H](CCCN)NC2=O)[C@@H](C)CC)CS1 |  | 153, TSB with lysed horse blood | 24 h, 37 °C, added: ZnSO4 | 2 µg/mL
